Measurements of several laboratories.
Each line is one published result; not all experiments were run side by side. ± gives the spread as reported.
MAPK14: Mitogen-activated protein kinase 14 (MAPK14, Homo sapiens, UniProt Q16539)
Prkcd C1b domain: Protein kinase C delta type, C1b domain (Prkcd, Mus musculus, UniProt P28867)

Amino acid sequences for entries named in this document (tags omitted). Residues count along the entry.
UniProt Q16539, whole entry: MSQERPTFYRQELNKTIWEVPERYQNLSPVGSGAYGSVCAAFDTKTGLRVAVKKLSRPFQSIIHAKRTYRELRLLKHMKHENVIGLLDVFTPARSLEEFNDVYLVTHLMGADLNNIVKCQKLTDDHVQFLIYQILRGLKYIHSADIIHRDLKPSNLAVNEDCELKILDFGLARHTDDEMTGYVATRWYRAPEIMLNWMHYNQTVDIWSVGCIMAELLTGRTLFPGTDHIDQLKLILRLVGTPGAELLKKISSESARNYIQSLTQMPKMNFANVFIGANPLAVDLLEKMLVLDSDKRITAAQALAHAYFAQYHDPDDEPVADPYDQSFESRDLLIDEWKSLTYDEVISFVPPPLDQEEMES
UniProt P28867, 231-280 limits assumed: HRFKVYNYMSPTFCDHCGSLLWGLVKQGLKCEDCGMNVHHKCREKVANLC
UniProt Q04609, whole entry: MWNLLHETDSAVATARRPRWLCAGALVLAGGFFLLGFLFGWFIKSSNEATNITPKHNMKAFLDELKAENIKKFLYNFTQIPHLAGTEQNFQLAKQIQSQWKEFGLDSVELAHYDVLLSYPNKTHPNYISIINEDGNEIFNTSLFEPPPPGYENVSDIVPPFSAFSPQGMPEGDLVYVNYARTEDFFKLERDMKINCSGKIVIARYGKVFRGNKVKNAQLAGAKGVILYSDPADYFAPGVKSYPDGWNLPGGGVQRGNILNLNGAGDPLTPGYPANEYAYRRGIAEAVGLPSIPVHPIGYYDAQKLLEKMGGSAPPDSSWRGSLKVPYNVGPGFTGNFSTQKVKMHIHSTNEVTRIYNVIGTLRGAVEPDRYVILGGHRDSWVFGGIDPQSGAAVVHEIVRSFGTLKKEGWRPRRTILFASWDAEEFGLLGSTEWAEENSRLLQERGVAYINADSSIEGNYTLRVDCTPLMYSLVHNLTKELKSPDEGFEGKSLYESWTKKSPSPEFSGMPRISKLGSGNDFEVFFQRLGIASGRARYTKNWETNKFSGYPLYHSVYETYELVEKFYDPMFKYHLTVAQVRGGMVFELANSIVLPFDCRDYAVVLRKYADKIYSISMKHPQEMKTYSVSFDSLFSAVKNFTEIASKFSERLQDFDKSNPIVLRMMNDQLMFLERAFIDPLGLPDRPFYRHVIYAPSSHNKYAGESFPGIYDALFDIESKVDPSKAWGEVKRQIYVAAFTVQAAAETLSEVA
UniProt Q9R0C9, whole entry: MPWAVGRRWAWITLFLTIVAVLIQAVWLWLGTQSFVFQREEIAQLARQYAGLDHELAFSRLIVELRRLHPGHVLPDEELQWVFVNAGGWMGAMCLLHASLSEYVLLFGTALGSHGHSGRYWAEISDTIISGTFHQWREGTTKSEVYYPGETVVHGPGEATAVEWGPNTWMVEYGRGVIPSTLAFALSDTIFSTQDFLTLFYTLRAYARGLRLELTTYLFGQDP
UniProt P45983, whole entry: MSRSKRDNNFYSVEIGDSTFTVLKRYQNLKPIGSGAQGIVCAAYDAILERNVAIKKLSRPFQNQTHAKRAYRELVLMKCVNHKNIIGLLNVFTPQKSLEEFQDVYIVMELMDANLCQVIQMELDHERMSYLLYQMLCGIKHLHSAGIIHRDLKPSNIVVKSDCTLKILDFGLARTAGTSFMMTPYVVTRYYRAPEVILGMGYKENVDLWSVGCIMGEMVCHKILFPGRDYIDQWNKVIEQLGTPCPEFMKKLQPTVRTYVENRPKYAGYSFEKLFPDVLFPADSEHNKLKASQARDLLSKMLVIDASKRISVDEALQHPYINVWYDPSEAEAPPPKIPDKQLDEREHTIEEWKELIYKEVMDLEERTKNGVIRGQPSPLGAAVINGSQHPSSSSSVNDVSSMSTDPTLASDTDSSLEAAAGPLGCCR
UniProt P42264, 32-919 limits assumed: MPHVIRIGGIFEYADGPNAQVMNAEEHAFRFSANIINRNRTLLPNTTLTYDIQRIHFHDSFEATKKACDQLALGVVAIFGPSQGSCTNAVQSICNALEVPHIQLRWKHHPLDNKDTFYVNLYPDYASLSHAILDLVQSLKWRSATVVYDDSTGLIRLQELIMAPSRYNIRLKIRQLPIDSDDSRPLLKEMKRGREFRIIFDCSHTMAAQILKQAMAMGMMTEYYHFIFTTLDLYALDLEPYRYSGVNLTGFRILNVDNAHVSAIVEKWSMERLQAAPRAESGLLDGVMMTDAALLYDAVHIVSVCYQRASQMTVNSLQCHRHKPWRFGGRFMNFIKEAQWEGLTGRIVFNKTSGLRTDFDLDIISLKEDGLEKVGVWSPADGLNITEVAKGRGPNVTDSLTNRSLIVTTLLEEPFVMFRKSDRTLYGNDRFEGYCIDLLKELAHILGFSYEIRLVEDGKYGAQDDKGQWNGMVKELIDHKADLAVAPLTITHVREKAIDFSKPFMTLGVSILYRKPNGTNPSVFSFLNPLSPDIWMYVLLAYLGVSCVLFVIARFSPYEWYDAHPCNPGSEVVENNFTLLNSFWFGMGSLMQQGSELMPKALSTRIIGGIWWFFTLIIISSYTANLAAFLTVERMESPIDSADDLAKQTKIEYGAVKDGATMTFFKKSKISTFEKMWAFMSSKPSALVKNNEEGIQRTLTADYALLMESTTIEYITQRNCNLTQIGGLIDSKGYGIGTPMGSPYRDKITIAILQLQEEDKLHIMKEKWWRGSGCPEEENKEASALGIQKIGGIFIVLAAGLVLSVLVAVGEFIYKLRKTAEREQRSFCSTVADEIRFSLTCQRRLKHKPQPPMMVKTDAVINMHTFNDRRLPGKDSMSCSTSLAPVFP
UniProt Q9EP80, whole entry: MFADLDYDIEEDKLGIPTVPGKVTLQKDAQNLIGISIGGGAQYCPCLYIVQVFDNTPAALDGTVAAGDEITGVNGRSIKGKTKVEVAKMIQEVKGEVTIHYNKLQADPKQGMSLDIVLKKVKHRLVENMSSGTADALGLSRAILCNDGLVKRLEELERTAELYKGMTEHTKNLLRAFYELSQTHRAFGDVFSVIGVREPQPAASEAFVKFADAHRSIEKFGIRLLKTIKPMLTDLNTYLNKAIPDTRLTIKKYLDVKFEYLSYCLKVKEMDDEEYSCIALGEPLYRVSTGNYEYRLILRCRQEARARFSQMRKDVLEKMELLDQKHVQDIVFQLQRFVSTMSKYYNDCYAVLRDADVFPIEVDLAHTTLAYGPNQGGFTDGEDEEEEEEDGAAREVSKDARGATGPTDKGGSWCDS
UniProt Q9U419, whole entry: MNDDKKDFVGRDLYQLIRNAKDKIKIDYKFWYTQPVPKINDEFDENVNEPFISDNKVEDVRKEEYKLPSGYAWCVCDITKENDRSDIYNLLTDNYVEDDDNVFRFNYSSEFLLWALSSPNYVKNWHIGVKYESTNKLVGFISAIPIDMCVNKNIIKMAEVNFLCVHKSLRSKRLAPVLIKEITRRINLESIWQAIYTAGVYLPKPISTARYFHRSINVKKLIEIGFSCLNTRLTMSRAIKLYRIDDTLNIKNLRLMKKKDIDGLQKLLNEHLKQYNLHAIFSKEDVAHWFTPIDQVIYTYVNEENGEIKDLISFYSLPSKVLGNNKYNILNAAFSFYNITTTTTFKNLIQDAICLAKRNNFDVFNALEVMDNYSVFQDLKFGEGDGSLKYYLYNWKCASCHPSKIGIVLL
UniProt P30542, whole entry: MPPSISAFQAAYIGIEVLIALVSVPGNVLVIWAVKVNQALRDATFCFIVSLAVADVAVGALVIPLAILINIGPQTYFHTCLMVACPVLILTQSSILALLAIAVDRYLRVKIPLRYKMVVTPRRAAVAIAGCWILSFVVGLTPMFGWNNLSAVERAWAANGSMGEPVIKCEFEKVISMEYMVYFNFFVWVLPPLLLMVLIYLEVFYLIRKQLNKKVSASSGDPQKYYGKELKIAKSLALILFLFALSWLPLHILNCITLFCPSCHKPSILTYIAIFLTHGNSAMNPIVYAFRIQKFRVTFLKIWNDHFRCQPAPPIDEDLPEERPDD
UniProt P35462, whole entry: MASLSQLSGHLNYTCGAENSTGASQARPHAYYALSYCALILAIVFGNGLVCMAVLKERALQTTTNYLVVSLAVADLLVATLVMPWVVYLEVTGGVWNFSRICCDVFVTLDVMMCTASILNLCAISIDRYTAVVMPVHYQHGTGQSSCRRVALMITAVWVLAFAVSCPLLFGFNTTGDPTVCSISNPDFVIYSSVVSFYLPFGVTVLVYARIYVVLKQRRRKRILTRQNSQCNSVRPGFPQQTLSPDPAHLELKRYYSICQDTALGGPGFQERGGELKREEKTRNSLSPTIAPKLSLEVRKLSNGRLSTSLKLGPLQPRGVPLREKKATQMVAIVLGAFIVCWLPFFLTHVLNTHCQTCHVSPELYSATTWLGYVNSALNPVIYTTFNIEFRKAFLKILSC

SMILES | target | assay | test system | setting | Ki
CC(C)(C)OC(=O)C1=C[C@](C)(C(=O)OCC#Cc2ccncc2)CCC1=O | MAPK14 | D-peptide displacement, fluorescence polarization |  |  | 1800 ± 700 nM
CC1(C)C(=CC=CC=CC=CC2=[N+](CCCCS(=O)(=O)[O-])c3ccc4ccccc4c3C2(C)C)N(CCCCCC(=O)NCCCC[C@H](NC(=O)N[C@@H](CCC(=O)O)C(=O)O)C(=O)O)c2ccc3ccccc3c21 | Glutamate carboxypeptidase 2 (FOLH1, Homo sapiens, UniProt Q04609) | enzyme activity, inhibitor |  | compound in DMSO, added: [3H]NAAG 30 nM | 0.7 ± 0.01 nM
CCCCCCCCCCCCCC[C@@H](O)[C@@H](O)[C@H](CO[C@H]1O[C@H](CO)[C@H](O)[C@H](O)[C@H]1O)NC(=O)CCCCCCCCCCCCCCc1ccccc1 | Cd1d1, dimeric Ig fusion (Mus musculus, UniProt P11609) | binding, competitive microarray binding |  | added: printed glycolipid 100 µM | 16000 ± 3200 nM
CCOc1cc(C(C)(C)C)ccc1C1=N[C@H](c2ccc(Cl)cc2)[C@H](c2ccc(Cl)cc2)N1C(=O)N1CCN(CC(=O)NCCOCCOCCOCCNC(=O)CN2CCN(C(=O)N3C(c4ccc(C(C)(C)C)cc4OCC)=N[C@H](c4ccc(Cl)cc4)[C@@H]3c3ccc(Cl)cc3)CC2=O)C(=O)C1 | E3 ubiquitin-protein ligase Mdm2, with p53 (MDM2, Homo sapiens, UniProt Q00987) | binding, fluorescence polarization competition |  |  | 9900 ± 2300 nM
C/C(=N\OCCN1CCN(C2COC2)CC1)c1ccc(C(F)(F)F)cc1 | Sigma non-opioid intracellular receptor 1 (Sigmar1, Rattus norvegicus, UniProt Q9R0C9) | radioligand binding | rat |  | 108 ± 2.4 nM
CCCCCCCCC(CCCCCCCCC=CCCCCCCCCC(CCCCCCCC)C(=O)OCC1(CO)CC(=C(C)C)C(=O)O1)C(=O)OCC1(CO)CC(=C(C)C)C(=O)O1 (racemic) | Prkcd C1b domain | binding, [3H]PDBu competition |  | 5 min, 37 °C, added: phosphatidylserine 100 µg/mL | 3 ± 0.76 nM
COC(=O)C1(C)C=C(C(=O)OCc2ccccc2)C(=O)C1 (stereo not shown) | MAPK14 | D-peptide displacement, fluorescence polarization |  |  | 9400 ± 2100 nM
O=C(O)c1cc(C(=O)N[C@@H](Cc2c[nH]c3ccccc23)C(=O)O)cc([C@H]2CCN[C@@H]2C(=O)O)c1 | NMDA receptor (rat) | binding, radioligand binding | rat cortical synaptosomes | added: [3H]CGP39653 | 1000 to 5000 nM
COC(=O)[C@]1(C)C=C(C(=O)OCc2ccccc2)C(=O)CC1 | Mitogen-activated protein kinase 8 (MAPK8, Homo sapiens, UniProt P45983) | D-peptide displacement, fluorescence polarization |  |  | 15300 ± 2400 nM
N=C(N)NCCC[C@H](NC(=O)c1cc(C(=O)O)cc([C@H]2CCN[C@@H]2C(=O)O)c1)C(=O)O | Glutamate receptor ionotropic, kainate 3 (Rattus norvegicus, UniProt P42264) | binding, radioligand binding | Sf9 membranes | homomeric receptor, added: [3H]kainate | 2780 ± 1410 nM
CCCCCCCCC(CCCCCC=CCCCCCC(CCCCCCCC)C(=O)OCC1(CO)CC(=C(C)C)C(=O)O1)C(=O)OCC1(CO)CC(=C(C)C)C(=O)O1 (racemic) | Prkcd C1b domain | binding, [3H]PDBu competition |  | 5 min, 37 °C, added: phosphatidylserine 100 µg/mL | 1.17 ± 0.34 nM
CCOC(=O)NC(=O)/C(C#N)=C/c1ccc([N+](=O)[O-])c(Br)c1 | PRKCA-binding protein, PDZ domain (Pick1, Rattus norvegicus, UniProt Q9EP80) | binding, fluorescence polarization |  | added: labelled hDAT C-terminal peptide | 26000 ± 2300 nM
c1ccc(Cc2noc(-c3cccc(OC4CCNCC4)c3)n2)cc1 | Glycylpeptide N-tetradecanoyltransferase (Plasmodium falciparum, UniProt Q9U419) | enzyme activity, inhibitor, CPM fluorescence |  | added: substrate 4.0 µM | 2600 nM
O=C(NCc1ccc(-c2cnco2)cc1)[C@@H]1C[C@@H](O)CN1C(=O)c1cccc(O)c1 | von Hippel-Lindau disease tumor suppressor, with elongin B, C (VHL, Homo sapiens, UniProt P40337) | inhibitor, fluorescence polarization | VHL-elonginB-elonginC complex | 1% DMSO, added: FAM-DEALA-Hyp-YIPD peptide | 13300 nM
COc1cccc(-c2c(C#N)c(N)nc(SCc3ncc[nH]3)c2C#N)c1 | Adenosine receptor A1 (ADORA1, Homo sapiens, UniProt P30542) | radioligand displacement | HEK293 membranes | 1 h, 25 °C, added: 0.5 nM [3H]DPCPX | 3.1 ± 0.4 nM
O[C@@H](c1ccc(F)cc1)C(F)(F)CCN1CCC(O)(c2ccc(Cl)cc2)CC1 (racemic) | D(3) dopamine receptor (DRD3, Homo sapiens, UniProt P35462) |  |  |  | 34100 ± 6490 nM

Some of these lines once more:
SMILES | target | assay | test system | setting | Ki
COC(=O)C1(C)C=C(C(=O)OCc2ccccc2)C(=O)C1 (stereo not shown) | MAPK14 | D-peptide displacement, fluorescence polarization |  |  | 9400 ± 2100 nM
O=C(O)c1cc(C(=O)N[C@@H](Cc2c[nH]c3ccccc23)C(=O)O)cc([C@H]2CCN[C@@H]2C(=O)O)c1 | NMDA receptor (rat) | binding, radioligand binding | rat cortical synaptosomes | added: [3H]CGP39653 | 1000 to 5000 nM
